{"data": "Results gathered from unrelated publications", "medium": "plasma", "note": "Lines come from different studies, so protocols differ. ± marks the error that the study gave."}
{"SMILES": "CCOc1c([C@H](C)n2nc(C)c3c(N)ncnc32)cc(Cl)c(F)c1[C@@H]1CNC(=O)C1", "system": "human patients, indolent lymphoma", "conditions": "oral, 20 mg, day 15, monotherapy", "Cmin": "202 nM"}
{"SMILES": "O=C(O)CCC(=O)O.[2H]C([2H])([2H])Oc1cc(C)c2[nH]ccc2c1CN1CC[C@@H](C2CC2)C[C@H]1c1ccc(C(=O)O)cc1", "system": "human", "conditions": "50 mg twice daily, day 10, multiple ascending dose, geometric mean", "Cmin": "1610 ng/mL"}
{"SMILES": "Cc1ncnc2c1ccn2[C@@H]1C[C@H](Oc2cc(C(F)F)c(F)c3c2CNCC3)[C@@H](O)[C@H]1O", "system": "human", "conditions": "0.5 mg once daily", "Cmin": "0.971 ng/mL"}
{"SMILES": "Cn1cc(-c2cn3nccc3c(-c3cnn([C@]4(CC#N)C[C@@H](C#N)C4)c3)n2)cn1", "system": "healthy humans fed", "conditions": "100 mg once daily, day 10, geometric mean", "Cmin": "10.4 ng/mL"}
{"SMILES": "C[C@H](CCC(=O)O)[C@H]1CC[C@H]2[C@@H]3CC[C@@H]4C[C@H](OS(=O)(=O)O)CC[C@]4(C)[C@H]3CC[C@]12C", "system": "human", "conditions": "baseline", "Cmin": "276 ± 16 nM"}
{"SMILES": "CCCCOCCOc1ccc(-c2ccc3c(c2)/C=C(/C(=O)Nc2ccc([S@@+]([O-])Cc4cncn4CCC)cc2)CCCN3CC(C)C)cc1", "system": "human, moderate hepatic impairment", "conditions": "oral, 150 mg, day 1", "Cmin": "87.3 ng/mL"}
{"SMILES": "C[C@H](CCC(=O)O)[C@H]1CC[C@H]2[C@@H]3[C@H](O)C[C@@H]4C[C@H](O)CC[C@]4(C)[C@H]3CC[C@]12C", "system": "human", "conditions": "oral, dose not given, control", "Cmin": "161 ± 55 nM"}
{"SMILES": "Cc1cc(/C=C/C#N)cc(C)c1Nc1ccnc(Nc2ccc(C#N)cc2)n1", "system": "human, haemodialysis patients", "conditions": "oral, dose not given, steady state, added: dolutegravir (fixed-dose combination)", "Cmin": "49 ng/mL"}
{"SMILES": "O=C(O)CCCCCCCCCCCCC(=O)O", "system": "human", "conditions": "endogenous baseline diurnal", "Cmin": "33.4 ± 2.5 nM"}
{"SMILES": "Fc1ccc([C@@H]2CCNC[C@H]2COc2ccc3c(c2)OCO3)cc1", "system": "human, CYP2D6 normal metabolizers", "conditions": "oral, 20 mg, steady state", "Cmin": "10 ng/mL"}
{"note": "Repeated from above:"}
{"SMILES": "CCOc1c([C@H](C)n2nc(C)c3c(N)ncnc32)cc(Cl)c(F)c1[C@@H]1CNC(=O)C1", "system": "human patients, indolent lymphoma", "conditions": "oral, 20 mg, day 15, monotherapy", "Cmin": "202 nM"}
{"SMILES": "C[C@H](CCC(=O)O)[C@H]1CC[C@H]2[C@@H]3[C@H](O)C[C@@H]4C[C@H](O)CC[C@]4(C)[C@H]3CC[C@]12C", "system": "human", "conditions": "oral, dose not given, control", "Cmin": "161 ± 55 nM"}
